Assay results collected from several papers.
Each line is one published result; not all experiments were run side by side. ± marks the error that the study gave.

For `CCCCCc1cc(OC(=O)C(N)C(C)C)c2c(c1)OC(C)(C)C1CCC(C)=CC21` (centres unmarked), the Papp was 4.75 ×10⁻⁶ cm/s (isolated rabbit cornea; 3 h, pH 7.4, 34 °C, donor 2.5% RMβCD).
For `NCCCC[C@H](N)C(=O)NCC(=O)N[C@@H](CC(=O)O)C(=O)N[C@@H](CC(=O)O)C(=O)N[C@@H](Cc1ccccc1)C(=O)N[C@@H](Cc1ccccc1)C(=O)N1CCC[C@H]1C(=O)N[C@@H](Cc1ccc(O)cc1)C(=O)N[C@@H](Cc1ccc(O)cc1)C(=O)N[C@@H](Cc1c[nH]cn1)C(=O)N[C@@H](CO)C(=O)O`, the CC50 was greater than 100 µM (cytotoxicity; human cells; 2 (unit not given)).
Under “chiral inversion rate constant”, `C[C@H](NC(C)(C)C)C(=O)c1cccc(Cl)c1` is recorded as 0.54 h⁻¹ (human plasma; 500 nM, 37 °C).
With `CN[C@@H]1[C@H](O)[C@H](NC)[C@H]2O[C@]3(O)[C@H](O[C@@H]2[C@H]1O)O[C@H](C)C[C@H]3NC(=O)Cc1cc(Cl)ccn1` the compound remaining was 67.3% (metabolic stability; rat, liver microsomes; 90 min).
For `COc1ccc(-n2cc(C(=O)N3C[C@]4(OC(=O)c5ccccc5NC(C)=O)CC[C@H](OC)[C@@]56[C@@H]4C[C@@H]([C@@H]35)[C@@]3(O)C[C@H](OC)[C@H]4C[C@@H]6[C@]3(O)[C@H]4OC)nn2)cc1`, the C0 was 140 ng/mL (Sprague-Dawley rat, plasma; intravenous, 2 mg/kg).
For `CCC(=C(c1ccc(Cl)cc1)c1ccc(OCCN2CCOCC2)cc1)c1ccc(OC)cc1`, the CC50 was 18.6 µg/mL (human).
The compound remaining of `CN[C@@H]1[C@H](O)[C@H](NC)[C@H]2O[C@]3(O)[C@H](O[C@@H]2[C@H]1O)O[C@H](C)C[C@H]3NC(=O)Cc1ccc(F)cn1` is reported as 102% (metabolic stability; rat, liver microsomes; 90 min).
For `N[C@]1(c2ccccc2Cl)CCC[C@H](O)C1=O`, the terminal half-life was 8 ± 4 h (Wistar rat, plasma; intravenous, 20 mg/kg).
The plasma concentration of `N=C(N)NCCCCCCN1CCC23c4c5ccc(O)c4OC2c2nc4ccccc4cc2CC3(O)C1C5` (centres unmarked) is reported as roughly 1200 ng/mL (CD-1 mice, male; subcutaneous, 30 mg/kg, 80 min).
`CC[C@H](C)[C@H](NC(=O)[C@@H](NC(=O)[C@H](CCC(N)=O)NC(=O)[C@@H](N)CO)C(C)C)C(=O)N[C@@H](CO)C(=O)N[C@@H](CC(N)=O)C(=O)N1CCC[C@H]1C(=O)N[C@@H](Cc1ccc(O)cc1)C(=O)N[C@@H](Cc1ccc(O)cc1)C(=O)N1CCC[C@H]1C(=O)N[C@@H](Cc1ccccc1)C(=O)N[C@@H](Cc1ccc(O)cc1)C(=O)N[C@@H](Cc1ccc(O)cc1)C(=O)N[C@@H](CO)C(=O)O` has a CC50 of greater than 100 µM (cytotoxicity; human cells; 2 (unit not given)).
With `CC1=C[C@H]2c3c(O)cc(CCc4ccccc4)cc3OC(C)(C)[C@@H]2CC1` the brain concentration was 662 nM (LC-MS/MS; male BALB/c mouse, brain; intraperitoneal, 40 mg/kg, 1 h, with: Δ9-trans-THC 10 mg/kg and cis-PET 50 mg/kg).
With `CN[C@@H]1[C@H](O)[C@H](NC)[C@H]2O[C@]3(O)[C@H](O[C@@H]2[C@H]1O)O[C@H](C)C[C@H]3NC(=O)Cc1ccc(Cl)cn1` the compound remaining was 88% (metabolic stability; rat, liver microsomes; 90 min).
The Papp of `CCCCCc1cc(OC(=O)C(NC(=O)CCC(=O)O)C(C)C)c2c(c1)OC(C)(C)C1CCC(C)=CC21` (centres unmarked) is reported as 4.1 ± 0.2 ×10⁻⁶ cm/s (isolated rabbit cornea; 3 h, pH 7.4, 34 °C, donor polysorbate sample B 0.05%).
`O=C(Cc1cccs1)N[C@@H]1C(=O)N2C(C(=O)O)=C(CSc3cccc[n+]3[O-])CS[C@H]12`: metabolic stability “stable” (human liver microsomes; 0.5 µM).

Some of these lines once more:
With `CN[C@@H]1[C@H](O)[C@H](NC)[C@H]2O[C@]3(O)[C@H](O[C@@H]2[C@H]1O)O[C@H](C)C[C@H]3NC(=O)Cc1cc(Cl)ccn1` the compound remaining was 67.3% (metabolic stability; rat, liver microsomes; 90 min).
